Assay results from different studies.
± marks the error that the study gave.
OPRK1: Kappa-type opioid receptor (OPRK1, Homo sapiens, UniProt P41145)

By UniProt entry, the sequences of proteins in these tests, tags left out.
UniProt P23458, whole entry: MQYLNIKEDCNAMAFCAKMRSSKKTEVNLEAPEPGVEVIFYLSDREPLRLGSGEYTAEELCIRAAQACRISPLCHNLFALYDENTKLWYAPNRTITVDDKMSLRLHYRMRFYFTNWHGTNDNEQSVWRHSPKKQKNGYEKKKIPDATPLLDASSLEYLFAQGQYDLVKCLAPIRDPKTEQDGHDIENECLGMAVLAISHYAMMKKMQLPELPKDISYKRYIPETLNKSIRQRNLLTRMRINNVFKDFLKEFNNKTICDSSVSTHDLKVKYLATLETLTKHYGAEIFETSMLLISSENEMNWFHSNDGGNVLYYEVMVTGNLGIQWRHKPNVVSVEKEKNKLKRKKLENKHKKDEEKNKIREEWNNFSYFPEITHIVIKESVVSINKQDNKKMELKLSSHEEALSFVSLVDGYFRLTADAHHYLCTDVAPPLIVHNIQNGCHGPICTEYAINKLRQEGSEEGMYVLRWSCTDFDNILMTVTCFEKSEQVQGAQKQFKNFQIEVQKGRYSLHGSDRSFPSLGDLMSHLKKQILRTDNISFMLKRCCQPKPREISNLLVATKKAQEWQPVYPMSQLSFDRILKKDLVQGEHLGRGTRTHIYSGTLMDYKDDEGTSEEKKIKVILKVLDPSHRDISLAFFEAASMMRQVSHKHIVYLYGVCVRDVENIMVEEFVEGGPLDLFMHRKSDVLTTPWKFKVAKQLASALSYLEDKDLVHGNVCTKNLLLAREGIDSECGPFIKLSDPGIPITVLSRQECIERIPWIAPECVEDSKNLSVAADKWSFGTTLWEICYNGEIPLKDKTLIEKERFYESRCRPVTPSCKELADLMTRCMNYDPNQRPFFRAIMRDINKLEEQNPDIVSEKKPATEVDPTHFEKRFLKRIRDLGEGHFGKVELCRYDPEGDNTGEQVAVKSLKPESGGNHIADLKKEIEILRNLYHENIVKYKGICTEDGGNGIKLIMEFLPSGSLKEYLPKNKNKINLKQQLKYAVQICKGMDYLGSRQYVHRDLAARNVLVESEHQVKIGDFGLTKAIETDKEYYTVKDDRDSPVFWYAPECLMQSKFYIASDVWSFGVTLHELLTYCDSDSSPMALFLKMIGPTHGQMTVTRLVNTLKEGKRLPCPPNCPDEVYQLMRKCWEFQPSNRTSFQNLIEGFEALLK
UniProt Q96J92, whole entry: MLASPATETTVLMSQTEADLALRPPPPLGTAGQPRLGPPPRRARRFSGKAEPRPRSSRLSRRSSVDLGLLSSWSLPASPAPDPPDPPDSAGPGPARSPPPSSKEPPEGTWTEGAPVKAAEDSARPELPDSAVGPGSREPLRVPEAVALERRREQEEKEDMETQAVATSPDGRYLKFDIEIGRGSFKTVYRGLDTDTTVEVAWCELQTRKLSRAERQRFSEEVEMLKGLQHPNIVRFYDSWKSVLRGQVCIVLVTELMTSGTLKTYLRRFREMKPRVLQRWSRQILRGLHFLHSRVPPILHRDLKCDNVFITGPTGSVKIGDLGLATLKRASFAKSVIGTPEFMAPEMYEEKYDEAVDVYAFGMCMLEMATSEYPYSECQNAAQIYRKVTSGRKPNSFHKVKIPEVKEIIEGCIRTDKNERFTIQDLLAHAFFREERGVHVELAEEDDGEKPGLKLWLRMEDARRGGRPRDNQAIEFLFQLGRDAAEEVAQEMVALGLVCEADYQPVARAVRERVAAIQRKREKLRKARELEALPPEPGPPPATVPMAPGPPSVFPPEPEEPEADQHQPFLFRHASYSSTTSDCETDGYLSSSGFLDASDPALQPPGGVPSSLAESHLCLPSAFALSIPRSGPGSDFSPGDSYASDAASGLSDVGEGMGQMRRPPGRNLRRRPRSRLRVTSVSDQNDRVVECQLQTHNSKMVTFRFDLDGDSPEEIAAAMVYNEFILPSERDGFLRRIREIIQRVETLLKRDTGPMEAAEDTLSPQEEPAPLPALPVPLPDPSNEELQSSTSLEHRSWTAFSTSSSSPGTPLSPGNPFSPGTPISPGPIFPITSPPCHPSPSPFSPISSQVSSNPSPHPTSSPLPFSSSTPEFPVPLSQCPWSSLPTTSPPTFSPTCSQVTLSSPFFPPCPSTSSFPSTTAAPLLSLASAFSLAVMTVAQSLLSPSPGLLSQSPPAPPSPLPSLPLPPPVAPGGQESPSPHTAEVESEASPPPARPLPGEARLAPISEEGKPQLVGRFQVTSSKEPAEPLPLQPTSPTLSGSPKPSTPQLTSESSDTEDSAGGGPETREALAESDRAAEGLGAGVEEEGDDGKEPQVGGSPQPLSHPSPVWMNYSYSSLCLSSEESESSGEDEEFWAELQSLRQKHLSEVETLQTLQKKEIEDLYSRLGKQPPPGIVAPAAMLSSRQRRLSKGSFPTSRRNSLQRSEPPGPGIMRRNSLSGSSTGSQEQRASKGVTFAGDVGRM

Compound | target | assay | test system | setting | scale | measurement | result
CO[C@]12CC[C@@]3(C[C@@H]1[C@](C)(O)c1ccccc1)[C@H]1Cc4ccc(O)c5c4[C@@]3(CCN1CC1CC1)[C@H]2O5 | OPRK1 | binding, radioligand displacement | CHO | added: [3H]U-69593 | – | Ki | 0.49 ± 0.08 nM
CO[C@]12CC[C@@]3(C[C@@H]1[C@@](C)(O)C(C)(C)C)[C@H]1Cc4c(Br)cc(O)c5c4[C@@]3(CCN1CC1CC1)[C@H]2O5 | OPRK1 | radioligand binding | CHO | added: [3H]U69593 | – | Ki | 9.93 ± 3.7 nM
CC#C/C(=N\OC[C@H]1COCCN1)c1ccc2ncnc(Nc3ccc(OCc4cccc(F)c4)c(Cl)c3)c2c1 | Tyrosine-protein kinase JAK1 (JAK1, Homo sapiens, UniProt P23458) | kinase activity | – | 10 µM | – | inhibition | -25.2%
CO[C@]12CC[C@@]3(C[C@@H]1[C@@](C)(O)C(C)(C)C)[C@H]1Cc4c(Cl)cc(O)c5c4[C@@]3(CCN1CC1CC1)[C@H]2O5 | OPRK1 | radioligand binding | CHO | added: [3H]U69593 | – | Ki | 45.6 ± 3.4 nM
CCN1CCN(Cc2ccc(NC(=O)c3ccc(C)c(/C=C/c4cnc5[nH]ccc5c4OC)c3)cc2C(F)(F)F)CC1 | Serine/threonine-protein kinase WNK4 (WNK4, Homo sapiens, UniProt Q96J92) | inhibitor, cell-based kinome screen | – | 5 µM | reference: vehicle | log2 fold change | 0.47
CC[C@](O)([C@H]1C[C@@]23C=C[C@]1(OC)[C@@H]1Oc4c(O)ccc5c4[C@@]12CCN(CC1CC1)[C@@H]3C5)C(C)(C)C | OPRK1 | binding, radioligand displacement | CHO | added: [3H]U-69593 | – | Ki | 0.75 ± 0.11 nM
CCCN1CCN(c2ccc3c(c2)C2CC3CCN2C(=O)OCc2ccccc2)CC1 (stereo not shown) | OPRK1 | binding, radioligand binding | – | – | – | Ki | 8520 nM
N=C(N)NCC(=O)NCC1(Cc2ccccc2)CCN(Cc2ccccc2)CC1 | OPRK1 | binding | HEK293 membranes | added: [3H]U-69,593 | – | Ki | 224 ± 20 nM
CO[C@]12CC[C@@]3(C[C@@H]1[C@](C)(O)CC(C)(C)c1ccccc1)[C@H]1Cc4ccc(O)c5c4[C@@]3(CCN1CC1CC1)[C@H]2O5 | OPRK1 | radioligand binding | CHO | added: [3H]U69593 | – | Ki | 4.15 ± 1.3 nM
COC(=O)[C@@H]1C[C@H](OC(=O)CSC#N)C(=O)[C@H]2[C@@]1(C)CC[C@H]1C(=O)O[C@H](c3ccoc3)C[C@]21C | OPRK1 | radioligand competition | – | added: [3H]diprenorphine | – | Ki | 39 ± 11 nM
CC[C@](O)([C@H]1C[C@@]23CC[C@]1(OC)[C@@H]1Oc4c(O)ccc5c4[C@@]12CCN(CC1CC1)[C@@H]3C5)C(C)(C)C | OPRK1 | binding, radioligand displacement | CHO | added: [3H]U-69593 | – | Ki | 0.56 ± 0.01 nM
N=C(N)NCC(=O)NCC1(Cc2cccc3ccccc23)CCN(Cc2ccccc2)CC1 | OPRK1 | binding | HEK293 membranes | added: [3H]U-69,593 | – | Ki | 362 ± 30 nM
O=C1CC2CC(c3cccc(O)c3)(CCN2CCc2ccccc2)C1 (stereo not shown) | OPRK1 | radioligand binding | CHO expressing OPRK1 | added: [3H]U-69593 | – | Ki | 198 ± 19 nM
COCO[C@H]1C[C@@H](C(=O)OC)[C@]2(C)CC[C@H]3C(=O)O[C@H](c4ccoc4)C[C@]3(C)[C@H]2C1=O | OPRK1 | radioligand binding | CHO expressing OPRK1 | added: [3H]U-69593 | – | Ki | 1.9 ± 0.2 nM
CO[C@]12CC[C@@]3(C[C@@H]1[C@H](O)c1ccccc1)[C@H]1Cc4ccc(O)c5c4[C@@]3(CCN1CC1CC1)[C@H]2O5 | OPRK1 | binding, radioligand displacement | CHO | added: [3H]U-69593 | – | Ki | 4.4 ± 1.6 nM
CN1CC[C@]2(c3cccc(O)c3)C[C@H]3CCCC[C@@H]3[C@H]1C2 (relative stereo) | OPRK1 | radioligand binding | CHO expressing OPRK1 | added: [3H]U-69593 | – | Ki | 22 ± 0.87 nM

Excerpt of the above:
Compound | target | assay | test system | setting | scale | measurement | result
CO[C@]12CC[C@@]3(C[C@@H]1[C@@](C)(O)C(C)(C)C)[C@H]1Cc4c(Br)cc(O)c5c4[C@@]3(CCN1CC1CC1)[C@H]2O5 | OPRK1 | radioligand binding | CHO | added: [3H]U69593 | – | Ki | 9.93 ± 3.7 nM
